Results collected from several papers.
± gives the spread as reported.
C3AR1: C3a anaphylatoxin chemotactic receptor (C3AR1, Homo sapiens, UniProt Q16581)
Sequence of UniProt Q16581 (whole entry, looked up): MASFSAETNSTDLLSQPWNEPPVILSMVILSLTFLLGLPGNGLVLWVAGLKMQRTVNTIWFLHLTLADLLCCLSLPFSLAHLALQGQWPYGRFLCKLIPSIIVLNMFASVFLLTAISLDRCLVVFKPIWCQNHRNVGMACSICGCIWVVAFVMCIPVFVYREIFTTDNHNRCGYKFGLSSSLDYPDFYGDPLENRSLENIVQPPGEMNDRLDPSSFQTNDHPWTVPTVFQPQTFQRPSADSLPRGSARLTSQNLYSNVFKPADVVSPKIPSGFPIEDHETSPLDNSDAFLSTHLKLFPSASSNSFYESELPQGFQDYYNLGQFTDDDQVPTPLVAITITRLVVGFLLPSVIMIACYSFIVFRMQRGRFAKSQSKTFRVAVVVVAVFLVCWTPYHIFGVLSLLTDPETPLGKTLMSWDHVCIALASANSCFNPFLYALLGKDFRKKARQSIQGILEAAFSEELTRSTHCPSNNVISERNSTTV
CNR2: Cannabinoid receptor 2 (CNR2, Homo sapiens, UniProt P34972)
Sequence of UniProt P34972 (whole entry, looked up): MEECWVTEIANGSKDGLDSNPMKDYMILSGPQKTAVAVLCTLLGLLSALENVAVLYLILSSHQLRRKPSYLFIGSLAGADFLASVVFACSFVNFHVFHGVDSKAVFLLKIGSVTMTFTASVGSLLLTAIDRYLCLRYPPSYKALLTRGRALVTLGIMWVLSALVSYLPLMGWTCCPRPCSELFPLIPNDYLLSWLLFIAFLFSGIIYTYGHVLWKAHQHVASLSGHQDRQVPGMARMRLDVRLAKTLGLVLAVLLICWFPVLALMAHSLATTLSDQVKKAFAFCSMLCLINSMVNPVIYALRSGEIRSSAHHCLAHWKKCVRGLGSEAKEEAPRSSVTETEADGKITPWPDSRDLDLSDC
Sequence of UniProt P25929 (whole entry, looked up): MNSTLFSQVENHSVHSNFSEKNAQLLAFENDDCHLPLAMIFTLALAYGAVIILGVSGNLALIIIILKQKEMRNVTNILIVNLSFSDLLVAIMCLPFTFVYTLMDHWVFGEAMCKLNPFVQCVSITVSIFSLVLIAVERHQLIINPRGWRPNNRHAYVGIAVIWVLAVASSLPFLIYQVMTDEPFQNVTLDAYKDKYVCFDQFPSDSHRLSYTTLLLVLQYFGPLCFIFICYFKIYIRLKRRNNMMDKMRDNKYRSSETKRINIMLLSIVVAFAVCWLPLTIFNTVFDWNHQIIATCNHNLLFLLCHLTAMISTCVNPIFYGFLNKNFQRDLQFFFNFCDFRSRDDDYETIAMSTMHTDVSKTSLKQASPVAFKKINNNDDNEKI
Sequence of UniProt P29320 (whole entry, looked up): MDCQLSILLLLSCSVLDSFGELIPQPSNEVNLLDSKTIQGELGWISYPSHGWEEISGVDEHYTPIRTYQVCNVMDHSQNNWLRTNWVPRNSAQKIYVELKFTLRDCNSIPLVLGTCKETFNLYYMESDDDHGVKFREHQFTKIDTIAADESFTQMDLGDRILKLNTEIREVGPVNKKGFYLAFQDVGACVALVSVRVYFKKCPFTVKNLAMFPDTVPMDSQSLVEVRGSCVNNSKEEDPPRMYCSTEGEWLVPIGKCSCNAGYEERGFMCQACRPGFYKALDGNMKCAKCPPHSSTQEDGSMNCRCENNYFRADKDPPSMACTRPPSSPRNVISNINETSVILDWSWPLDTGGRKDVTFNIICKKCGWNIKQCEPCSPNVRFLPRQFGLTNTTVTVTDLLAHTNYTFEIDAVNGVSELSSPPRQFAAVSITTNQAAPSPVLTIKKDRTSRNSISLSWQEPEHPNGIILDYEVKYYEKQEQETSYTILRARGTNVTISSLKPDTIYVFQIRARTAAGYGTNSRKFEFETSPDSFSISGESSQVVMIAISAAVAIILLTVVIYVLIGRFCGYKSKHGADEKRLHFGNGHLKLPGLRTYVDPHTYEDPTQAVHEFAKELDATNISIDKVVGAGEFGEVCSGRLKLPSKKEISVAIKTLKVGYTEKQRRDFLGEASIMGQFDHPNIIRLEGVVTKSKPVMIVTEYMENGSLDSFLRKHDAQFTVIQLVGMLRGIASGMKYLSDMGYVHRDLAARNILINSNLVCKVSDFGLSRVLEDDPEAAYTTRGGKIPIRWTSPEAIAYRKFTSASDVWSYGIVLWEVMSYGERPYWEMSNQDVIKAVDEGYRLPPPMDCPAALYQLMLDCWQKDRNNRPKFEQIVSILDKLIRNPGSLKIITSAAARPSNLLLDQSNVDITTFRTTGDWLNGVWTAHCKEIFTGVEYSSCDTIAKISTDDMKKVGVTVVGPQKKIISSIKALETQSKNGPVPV
Sequence of UniProt Q969F8 (whole entry, unmodified, looked up): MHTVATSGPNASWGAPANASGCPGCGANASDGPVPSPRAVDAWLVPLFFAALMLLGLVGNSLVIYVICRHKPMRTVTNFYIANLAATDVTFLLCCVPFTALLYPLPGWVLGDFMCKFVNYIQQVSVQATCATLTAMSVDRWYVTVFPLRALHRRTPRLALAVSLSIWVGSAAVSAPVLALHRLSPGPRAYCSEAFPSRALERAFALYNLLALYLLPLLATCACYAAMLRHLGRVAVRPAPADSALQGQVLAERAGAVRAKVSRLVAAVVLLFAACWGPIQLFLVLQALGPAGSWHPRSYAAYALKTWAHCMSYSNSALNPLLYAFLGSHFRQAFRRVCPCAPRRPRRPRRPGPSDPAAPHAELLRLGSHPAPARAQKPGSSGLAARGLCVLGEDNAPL
Sequence of UniProt P30968 (whole entry, looked up): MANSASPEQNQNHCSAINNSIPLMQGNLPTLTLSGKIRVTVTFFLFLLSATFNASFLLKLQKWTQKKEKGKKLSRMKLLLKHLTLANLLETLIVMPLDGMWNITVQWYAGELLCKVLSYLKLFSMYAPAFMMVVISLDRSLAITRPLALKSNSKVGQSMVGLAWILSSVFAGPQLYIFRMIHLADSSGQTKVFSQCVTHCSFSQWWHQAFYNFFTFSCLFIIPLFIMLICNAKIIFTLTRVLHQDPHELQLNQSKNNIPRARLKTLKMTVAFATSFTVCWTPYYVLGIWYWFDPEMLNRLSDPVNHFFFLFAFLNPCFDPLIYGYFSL
Sequence of UniProt Q9NSD7 (whole entry, unmodified, looked up): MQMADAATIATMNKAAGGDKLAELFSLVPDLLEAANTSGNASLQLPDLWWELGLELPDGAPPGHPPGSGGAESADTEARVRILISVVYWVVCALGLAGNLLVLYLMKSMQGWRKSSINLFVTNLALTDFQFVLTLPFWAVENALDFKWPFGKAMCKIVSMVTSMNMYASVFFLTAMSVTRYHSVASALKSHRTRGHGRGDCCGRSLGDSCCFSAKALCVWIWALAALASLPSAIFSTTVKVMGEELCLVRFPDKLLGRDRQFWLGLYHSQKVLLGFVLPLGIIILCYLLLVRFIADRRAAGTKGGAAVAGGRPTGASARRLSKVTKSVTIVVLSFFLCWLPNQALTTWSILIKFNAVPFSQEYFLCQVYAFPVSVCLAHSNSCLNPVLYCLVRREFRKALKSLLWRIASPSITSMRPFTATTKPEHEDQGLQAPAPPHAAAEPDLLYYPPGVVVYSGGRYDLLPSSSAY
Sequence of UniProt O43193 (whole entry, unmodified, looked up): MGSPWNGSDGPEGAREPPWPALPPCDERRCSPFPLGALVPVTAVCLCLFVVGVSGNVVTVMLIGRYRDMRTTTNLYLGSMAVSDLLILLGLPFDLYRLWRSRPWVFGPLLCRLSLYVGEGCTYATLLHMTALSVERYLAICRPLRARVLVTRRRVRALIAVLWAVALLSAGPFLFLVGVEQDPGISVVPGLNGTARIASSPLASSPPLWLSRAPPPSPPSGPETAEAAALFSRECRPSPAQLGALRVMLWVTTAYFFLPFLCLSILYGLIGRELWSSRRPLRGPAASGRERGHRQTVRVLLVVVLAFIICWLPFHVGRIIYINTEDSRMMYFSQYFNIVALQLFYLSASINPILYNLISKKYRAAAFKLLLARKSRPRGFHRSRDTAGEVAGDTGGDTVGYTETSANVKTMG
Sequence of UniProt Q8TDU9 (whole entry, unmodified, looked up): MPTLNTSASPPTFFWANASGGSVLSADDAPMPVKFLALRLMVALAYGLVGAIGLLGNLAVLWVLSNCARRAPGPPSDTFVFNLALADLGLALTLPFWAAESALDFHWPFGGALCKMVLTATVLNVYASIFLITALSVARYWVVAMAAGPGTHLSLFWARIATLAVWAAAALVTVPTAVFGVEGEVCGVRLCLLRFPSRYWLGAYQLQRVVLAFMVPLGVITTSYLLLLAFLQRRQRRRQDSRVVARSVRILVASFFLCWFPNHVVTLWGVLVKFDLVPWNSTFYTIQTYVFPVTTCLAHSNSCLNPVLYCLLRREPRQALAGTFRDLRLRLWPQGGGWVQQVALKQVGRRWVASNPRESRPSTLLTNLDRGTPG

SMILES = CC(=O)[O-].O.O.[O-]c1ccc(Br)cc1C=NCCN1CCOCC1.[Zn+2]; test = FRAP; conditions = 200 µM; endpoint = ferric reducing power; result = 45.8%
SMILES = CC(C)C[C@H](NC(=O)[C@H](C)NC(=O)[C@H](CO)NC(=O)[C@@H]1CCCN1C(=O)[C@@H]1CCCN1C(=O)[C@H](CCC(N)=O)NC(=O)[C@H](CC(C)C)NC(=O)[C@@H](N)[C@@H](C)O)C(=O)N[C@@H](CCCNC(=N)N)C(=O)N[C@@H](CCCNC(=N)N)C(=O)N[C@@H](CCCNC(=N)N)C(=O)N[C@@H](Cc1c[nH]cn1)C(=O)N[C@@H](Cc1ccc(O)cc1)C(=O)N[C@@H](Cc1c[nH]cn1)C(=O)N[C@@H](Cc1c[nH]cn1)C(=O)N[C@@H](C)C(=O)N[C@@H](CC(C)C)C(=O)N1CCC[C@H]1C(=O)N1CCC[C@H]1C(=O)N[C@@H](CO)C(=O)N[C@@H](CCCNC(=N)N)C(=O)O; target or system = C3AR1; test = cAMP response, agonist, GloSensor; scale = baseline: TLQP-21; endpoint = Emax; result = 57.1 ± 3.48%
SMILES = COC1CN([C@H]2CC[C@H]([C@@]3(C)Oc4c(Cl)cc(C(=O)NCc5c(SC)cc(C)[nH]c5=O)c(C)c4O3)CC2)C1; test = RNA-seq, item: PGLYRP1 mouse homolog; system = mouse, HT-1376 xenograft, whole blood; conditions = dose not given; scale = baseline: vehicle; endpoint = log2 fold change; result = 0.167
SMILES = CC[C@H](C)[C@H](NC(=O)[C@@H]1CCCN1C(=O)[C@@H](NC(=O)[C@@H](N)Cc1ccccc1)C(C)C)C(=O)N[C@@H](Cc1ccccc1)C(=O)N[C@H](C(=O)N[C@@H](Cc1ccc(O)cc1)C(=O)NCC(=O)N[C@@H](CCC(=O)O)C(=O)N[C@@H](CC(C)C)C(=O)N[C@@H](CCC(N)=O)C(=O)N[C@@H](CCCNC(=N)N)C(=O)N[C@@H](CCSC)C(=O)N[C@@H](CCC(N)=O)C(=O)N[C@@H](CCC(=O)O)C(=O)N[C@@H](CCCCN)C(=O)N[C@@H](CCC(=O)O)C(=O)N[C@@H](CCCNC(=N)N)C(=O)N[C@@H](CC(N)=O)C(=O)N[C@@H](CCCCN)C(=O)NCC(=O)N[C@@H](CCC(N)=O)C(=O)O)[C@@H](C)O; target or system = Motilin receptor (MLNR, Homo sapiens, UniProt O43193, Y345A); test = IP1 accumulation, agonist, IP-One HTRF; system = AD293; conditions = 1 h, 37 °C, 7.43; endpoint = Emax; result = 47 ± 6.9%
SMILES = C=CC(=O)Nc1cccc(Cn2ncc3cnc(Nc4cnn(CCOC)c4)nc32)c1; target or system = NDR2 human; test = binding, KINOMEscan; conditions = 100 nM; scale = lower = stronger binding; endpoint = percent of control; result = 100%
SMILES = Cc1nn(-c2cccc(N)c2)c(=O)c2cnc(Nc3ccc(N4CCNCC4)cc3)nc12; target or system = EPHA3 (Homo sapiens, UniProt P29320); test = kinase activity, inhibitor, SelectScreen kinase profiling; endpoint = IC50; result = > 10 µM
SMILES = Cc1ncsc1-c1ccc(C(C)NC(=O)C2CC(O)CN2C(=O)C(NC(=O)CCCCCCCCCCN2CCCC(Nc3ncc(Cl)c(Nc4ccccc4S(=O)(=O)C(C)C)n3)C2)C(C)(C)C)cc1 (stereo not drawn); target or system = 22Rv1; test = RNA-seq, item: SATB2 mRNA; conditions = concentration not given; scale = baseline: DMSO; endpoint = log2 fold change; result = -1.55
SMILES = CCOC(=O)[C@@](CC)(CCCSCCOCCOCCNC(=O)OC(C)(C)C)NC(=O)c1ccc(C2CC2)c(Cc2ccc(F)cc2)n1; target or system = CNR2; test = cAMP, agonist; endpoint = Emax; result = 86%
SMILES = CC[C@H](C)[C@H](NC(=O)[C@H](Cc1ccc(O)cc1)NC(=O)[C@H](CCCNC(=N)N)NC(=O)[C@H](CCCNC(=N)N)NC(=O)[C@H](CC(C)C)NC(=O)[C@H](CC(=O)O)NC(=O)[C@H](C)NC(=O)[C@H](C)NC(=O)[C@H](Cc1ccc(O)cc1)NC(=O)[C@H](CCC(N)=O)NC(=O)[C@H](C)NC(=O)[C@H](CCSC)NC(=O)[C@H](CCC(N)=O)NC(=O)[C@H](CCC(=O)O)NC(=O)[C@@H]1CCCN1C(=O)[C@@H](NC(=O)[C@H](C)NC(=O)[C@H](CC(N)=O)NC(=O)[C@H](CC(=O)O)NC(=O)CNC(=O)[C@@H]1CCCN1C(=O)[C@H](Cc1ccc(O)cc1)NC(=O)[C@@H](NC(=O)[C@@H]1CCCN1C(=O)[C@H](CCC(=O)O)NC(=O)[C@H](CC(C)C)NC(=O)[C@@H]1CCCN1C(=O)[C@H](C)N)C(C)C)[C@@H](C)O)C(=O)N[C@@H](CC(N)=O)C(=O)N[C@@H](CCSC)C(=O)N[C@@H](CC(C)C)C(=O)N[C@H](C(=O)N[C@@H](CCCNC(=N)N)C(=O)N1CCC[C@H]1C(=O)N[C@@H](CCCNC(=N)N)C(=O)N[C@@H](Cc1ccc(O)cc1)C(N)=O)[C@@H](C)O; target or system = NPY1R (Homo sapiens, UniProt P25929); conditions = concentration not given; endpoint = Emax; result = 100 ± 4%
SMILES = CC(C)C[C@H](NC(=O)[C@@H](Cc1ccc2ccccc2c1)NC(=O)[C@H](Cc1ccc(O)cc1)NC(=O)[C@H](CO)NC(=O)[C@H](Cc1c[nH]c2ccccc12)NC(=O)[C@H](Cc1c[nH]cn1)NC(=O)[C@@H]1CCC(=O)N1)C(=O)N[C@@H](CCCNC(=N)N)C(=O)N1CCC[C@H]1C(=O)NCC(N)=O; target or system = GNRHR (Homo sapiens, UniProt P30968); test = inositol phosphate, agonist, TR-FRET; system = HEK-293T; conditions = 1 h; endpoint = Emax; result = 100%
SMILES = CCOC(=O)[C@](CC)(CCCSCCOCCOCCNC(=O)CCCCCN1C(=CC=CC=CC2=[N+](C)c3ccc4ccccc4c3C2(C)C)C(C)(C)c2c1ccc1ccccc21)NC(=O)c1ccc(C2CC2)c(Cc2ccc(F)cc2)n1.[Cl-]; target or system = CNR2; test = cAMP, agonist; endpoint = Emax; result = 110%
SMILES = CCc1cc(O)cc2c(/C=N/NC(=N)NCCc3ccc(Cl)cc3)c[nH]c12; target or system = RXFP4 (Homo sapiens, UniProt Q8TDU9, T295V); system = HEK-293T; scale = baseline: wild type; endpoint = Emax; result = 45.3 ± 2.64%
SMILES = Cc1cc(C(c2ccc(Cl)cc2)c2ccc(Cl)cc2)sc1C(=O)N[C@@H](CCCN=C(N)N)C(=O)O; target or system = C3AR1; test = cAMP response, agonist, GloSensor cAMP; conditions = Gi signalling; endpoint = Emax; result = 52.6 ± 2%
SMILES = CC[C@H](C)[C@@H]1NC(=O)[C@H](Cc2ccccc2)NC(=O)[C@H](CCC(=O)O)NC(=O)[C@H](CCCNC(=N)N)NC(=O)CNC(=O)[C@@H](NC(=O)[C@H](CC(C)C)NC(=O)[C@H](CCCNC(=N)N)NC(=O)[C@@H](NC(=O)CNC(=O)[C@H](Cc2ccc(O)cc2)NC(=O)[C@@H]2CCCN2C(=O)[C@H](C)NC(=O)[C@H](C)NC(=O)[C@@H](N)CCCNC(=N)N)C(C)C)CSSC[C@@H]2NC(=O)[C@@H](NC(=O)[C@H](CO)NC(=O)[C@H](CO)NC(=O)[C@H](CO)NC(=O)[C@H](CC(C)C)NC(=O)CNC(=O)[C@H](C)NC(=O)[C@H](CC(C)C)NC(=O)[C@@H](NC(=O)[C@@H](N)CC(=O)O)C(C)C)CSSC[C@H](NC(=O)CNC(=O)[C@H](Cc3c[nH]c4ccccc34)NC(=O)[C@H](CCCCN)NC2=O)C(=O)N[C@@H](CO)C(=O)N[C@@H](CCCCN)C(=O)N[C@@H](CO)C(=O)N[C@@H](CCC(=O)O)C(=O)N[C@@H]([C@@H](C)CC)C(=O)N[C@@H](CO)C(=O)N[C@@H](CO)C(=O)N[C@@H](CC(C)C)C(=O)N[C@H](C(=O)O)CSSC[C@@H](C(=O)NCC(=O)NCC(=O)N[C@@H](CO)C(=O)N[C@@H](CCCNC(=N)N)C(=O)N[C@@H](Cc2c[nH]c3ccccc23)C(=O)O)NC(=O)[C@H]([C@@H](C)O)NC(=O)[C@H](Cc2ccccc2)NC(=O)[C@H]([C@@H](C)CC)NC(=O)[C@H](C(C)C)NC(=O)[C@H](C)NC(=O)[C@H](CCCNC(=N)N)NC1=O; target or system = RXFP3 (Homo sapiens, UniProt Q9NSD7, W138A); system = HEK-293T; scale = baseline: wild type; endpoint = Emax; result = 36.5 ± 5.72%
SMILES = CNC(=N)NCCC[C@H](NC(=O)[C@H](CC(C)C)NC(=O)NNC(=O)[C@H](Cc1ccccc1)NC(=O)[C@@H](NC(=O)[C@H](CC(N)=O)NC(=O)[C@@H]1C[C@@H](O)CN1C(=O)[C@@H](Cc1ccc(O)cc1)NC(C)=O)[C@@H](C)O)C(=O)N[C@@H](Cc1c[nH]c2ccccc12)C(N)=O; target or system = KiSS-1 receptor (KISS1R, Homo sapiens, UniProt Q969F8, L250G); test = inositol phosphate, agonist; system = HEK293; endpoint = Emax; result = 96.8%
SMILES = CCOC(=O)C(CC)(CCCSCCOCCOCCN=[N+]=[N-])NC(=O)c1ccc(C2CC2)c(Cc2ccc(F)cc2)n1 (stereo not drawn); target or system = CNR2; test = cAMP, agonist; endpoint = Emax; result = 93%
SMILES = O=C(Nc1cnccc1-c1ccc([18F])nc1)c1ccnc(NC(=O)C2CC2)c1; system = FVB/NJ mouse, both sexes, brain; conditions = intravenous, 50 min; endpoint = SUV; result = 0.046
SMILES = COc1cc(C2C(NC(=O)c3ccc(NC(=O)OC(C)(C)C)cc3)(C(=O)O)C(c3ccc(OC(=O)c4cccs4)c(OC)c3)C2(NC(=O)c2ccc(NC(=O)OC(C)(C)C)cc2)C(=O)O)ccc1OC(=O)c1cccs1 (stereo not drawn); target or system = GLP1R (Homo sapiens, UniProt P43220, W33A); test = cAMP accumulation, agonist; conditions = receptor mutant; scale = baseline: wild type; endpoint = Emax; result = 68 ± 7.52%

Some of these lines once more:
SMILES = CCOC(=O)C(CC)(CCCSCCOCCOCCN=[N+]=[N-])NC(=O)c1ccc(C2CC2)c(Cc2ccc(F)cc2)n1 (stereo not drawn); target or system = CNR2; test = cAMP, agonist; endpoint = Emax; result = 93%
SMILES = O=C(Nc1cnccc1-c1ccc([18F])nc1)c1ccnc(NC(=O)C2CC2)c1; system = FVB/NJ mouse, both sexes, brain; conditions = intravenous, 50 min; endpoint = SUV; result = 0.046
